Results pooled from the literature.
Parts stem from different laboratories: compare values within a part only. Substitutions count along the parent as printed.

Study 1
Target: Fragile X messenger ribonucleoprotein 1, C-terminal low-complexity region (Fmr1, Mus musculus, UniProt P35922)
Technique: RNA Bind-n-Seq
Form: RNA
Sample: in vitro
Concentration: 200 nM
Notes: whole 134-nt RNA, ends assumed
With: 150 mM LiCl
Baseline: input library
Direction: higher = stronger binding
Library: 7-deaza-guanosine replaces G
Constant ends, left off below: GGGAGUUCUACAGUCCGACGAUC … UGGAAUUCUCGGGUGUCAAGG
Oligonucleotide | log2 enrichment
GCAGGAAGUAAAAACAAAUGGAAAUGCUUCGGAUAGUGGCAGGGGUGGGAAAUGCUAAGGAAAGGGUGGGAUGGGAGUGGGUAAAGAGUU | 1.27
CAAGUCCUGUGCUACACAUCGUAUGUACCGAAUCGGAAAAAAAGGAAAGGUUUGGAAAGUAUUAUGUUACGCCGUUCGGAUCUGCACUUC | -2.52
AGUCCUGUGCUACACAUCGUAUGUACCGAAUCAAAUUUAAACCCCCAAACCCCCAAAAAAGUAUUAUGUUACGCCGUUCGGAUCUGCACU | 1.03
UCCUGUGCUACACAUCGUAUGUACCGAAUCAAAUUUUUUUAAACCCCCCCAAAUUUAAAAAAGUAUUAUGUUACGCCGUUCGGAUCUGCA | 1.17
UUUCAGGGGAGCUCUUUGCUCAGGCCCCGGUGGAUCAGUUUCCUGGCACAGCUGUGGAGAGUGUGACGGAUUCCAGCAGGUACUUCGUGA | -1.97
AAGUCCUGUGCUACACAUCGUAUGUACCGAAUCGGGUUUUGGGUUUUGGUUUUGGGGAAAGUAUUAUGUUACGCCGUUCGGAUCUGCACU | -1.31
UCGGACGCCGCCAACCUGCACGAGUUCCACGCGGACCUGCGCUCAUGCUUUGCACCCCAGCACAUGGCCAUGCUGUGUAGCCCCAUCCUC | 0.405
AGUCCUGUGCUACACAUCGUAUGUACCGAAUCGGGAGGGUUUUUUUGGGAAAAAGGGAAAGUAUUAUGUUACGCCGUUCGGAUCUGCACU | -1.46

Study 2
Target: RNA binding protein fox-1 homolog 2, RRM domain, GST-SBP tag (RBFOX2, Homo sapiens, UniProt O43251-10, residues 100-194)
Technique: RNA Bind-n-Seq
Form: RNA
Sample: in vitro
Concentration: 365 nM
Notes: natural RNA segment, single round, ends assumed
Baseline: no-protein control
Direction: higher = stronger binding
Constant ends, left off below: GGGAGUUCUACAGUCCGACGAUC … UGGAAUUCUCGGGUGCCAA
Target sequence (chain): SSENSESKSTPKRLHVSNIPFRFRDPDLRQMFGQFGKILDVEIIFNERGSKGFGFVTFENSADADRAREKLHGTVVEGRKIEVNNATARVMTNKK
Oligonucleotide | RBNS enrichment (R)
UCAAGAACUUCAUUUGCUUCAAAACAAGAUAAUGAACAGAAUGCAUUUGUAAAUGCAAGAUGCAUUGUAAAAUAAAGUUAAGCUUGUUUUUUUUUAAAAAAAACAAAGCA | 1.71
UAAAAGUGAAAUUAACCUCCUGCCAAUUUUACAACCCAAGAAUUUUUUUUUAAGGGCCUUGGAGCCAUCUCUAAAACAAACCUCAAGGGAUUUAGUGCCCUGUCUCCCUG | 0.563
GCUGGUCCCUAGGUUAGCGGGUUCCCAGCCCCCCUAAUCAGAGACUGAAGGACAAUUGACUUUUAUUUUUGUAUUUAAUUGACAUGAAUGUAAAGGGGACAGCUCAGGGU | 0.818
UUGUACAAAAAGUAAAGAGUAUCCUAAAGAUUGUAUUCAUUGUAAUCAAGUAAUGCAAUCAUCUCUCCUCUCUUGAAAUCUUGCUGGACCUCUUAGGCUACAAUAAACUG | 0.315
ACUGAGAAGAUCUUUUCUUUUUCCUUUUUUUGGUAACAAGACUUAGAAGGAGGGCCCAGGCACUUUCUGUUUGAACCCCUGUCAUGAUCACAGUGUCAGAGACGCGUCCU | 0.189
GAUUUGAAUUGAUUGACAAGUCCUGGCAUGUGACAAUUUUACUAAAUUACCAAGUUUGGUUUUUAAUAAUUUCACAAUAUUAUGCGCCAAGAUCUAAUUUUAAAAAUGUA | 0.619
CCUCACAUAUCACAGCCCUUCUCUCCCAAAGGGACCUUUGCAGCUUCUAUUGGACCCAGAUACCCUUUACCUCUACAGCAUAGACACCAAAUGUCCCAUAGUCCUCUCAC | 1.01
CUUGCUUGUCUGCAUUUAUUAGUGGUAAUAUUCUUUUACGUAUAAUAAAUUUUUAUACCCAAGCCUUUGAUGGUCUCCUCCUCGGGUGUGACUCCAAGGACAGGCAAGUG | 0.476

Study 3
Target: ABI1, truncated, D143A, DHFR fusion (Arabidopsis thaliana)
Technique: DHFR PCA, deep sequencing
Sample: yeast
Notes: methotrexate growth selection, single substitutions
With: (+)-ABA 1.4 µM
Baseline: wild-type fitted maximum
Direction: higher = stronger binding
Parent: PYL1, truncated, DHFR fusion (Arabidopsis thaliana); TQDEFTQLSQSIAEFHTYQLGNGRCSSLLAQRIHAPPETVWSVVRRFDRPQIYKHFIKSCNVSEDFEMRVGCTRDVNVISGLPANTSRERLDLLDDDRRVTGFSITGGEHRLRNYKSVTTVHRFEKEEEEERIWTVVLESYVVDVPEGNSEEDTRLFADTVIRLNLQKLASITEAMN
Variant | relative binding score
R163P | 17.5%
D92A | -0.6%
R99Q | 34.4%
V142T | 44.9%
L94P | -6.44%
F47Y | 2.03%
L94F | 63.7%
A35W | -15.3%
L156T | 69.7%
T101H | -0.507%
R90V | 34.8%
E130V | 53.4%
K58N | 14%
F56Y | 7.36%
H55Q | 92.8%
Q7N | 51.5%
S117K | 1.72%
E174R | 2.06%

Study 4
Target: Histone acetyltransferase KAT6A, both winged helices, GST fusion (KAT6A, Homo sapiens, UniProt Q92794, residues 1-181)
Technique: protein binding microarray
Form: double-stranded DNA, one strand shown
Sample: in vitro
Concentration: not given
Notes: 8-mer, flanks averaged, mean of 2 arrays, mostly near background
Baseline: not given
Direction: higher = stronger binding
Target sequence (chain): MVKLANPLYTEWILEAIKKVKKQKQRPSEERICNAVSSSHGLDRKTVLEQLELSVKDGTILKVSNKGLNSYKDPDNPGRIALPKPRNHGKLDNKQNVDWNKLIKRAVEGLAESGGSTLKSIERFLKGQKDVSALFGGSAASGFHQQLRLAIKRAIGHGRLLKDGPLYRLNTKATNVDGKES
Oligonucleotide | E-score
AAACAGGT | -0.128
CCTAGTCC | -0.125
GCGACAGC | 0.188
GTAAGTAA | -0.151
AACGGCAC | 0.247
CCCCGACC | 0.0261
CATTGGAC | -0.00838
GTGATCAC | 0.0257
AACCTTAC | -0.074
GGACAAGA | 0.0399
TCAGGCAA | -0.171
AATGACCT | -0.108
CGATCAAA | -0.0723
AGCGGCTG | 0.247
CGTCTCGC | 0.208
GAGACCCA | 0.00464
CAGATTAC | -0.0313

Repeated from above (study 4):
Oligonucleotide | E-score
CATTGGAC | -0.00838
GTGATCAC | 0.0257
AACCTTAC | -0.074
GGACAAGA | 0.0399
TCAGGCAA | -0.171
AATGACCT | -0.108
CGATCAAA | -0.0723
